Assay results of several laboratories.
Compare with care: the assays were run in different laboratories. ± marks the error that the study gave.

The viability of `CCCCCCCCCCOCc1cn(CC2=CC[C@@H]3C(C(=O)OC)=CO[C@@H](O)[C@H]23)nn1` is reported as 52.1 ± 0.5% (SK-N-SH; neuroprotection, MTT; 0.075 µM, 24 h, added: 250 µM H2O2).
`Cc1cccc(Nc2c3c(nc4ccccc24)CCC(C)C3)n1` (stereo not shown) has a viability of 67.8 ± 5.28% (SH-SY5Y; MTT; 50 µM, 1 h pretreatment, 10% FBS, added: H2O2).
`CC(C)CC(O)(CC(C)C)c1cn(C(=O)N2CCCC2)nn1` gave an SILAC ratio of 2.6 ± 0.15 (mouse T-cells; N-terminal labeled proteins, N-terminal enrichment proteomics, measured: FDX1; 1 nM, 6 h; baseline: DMSO).
`C[C@@H]1O[C@H]2O[C@@H]3C4(O)C(=O)c5cccc(O)c5C(=O)C4(O)O[C@]3(C)[C@]21O` (stereo partly shown) has a selectivity index of 3.02 (MDA-MB-231 and HFF; MTT; baseline: CC50 HFF over EC50 MDA-MB-231).
`Nc1ccc(Nc2c(NC3CCN(Cc4ccccc4)CC3)c(=O)c2=O)cc1` has a cell survival of 80.1% (SH-SY5Y; neuroprotection, MTT; 12.5 µM, 24 h pretreatment, added: H2O2 650 µM for 4 h).
For `COc1cc(C(=O)NCCOCCOCCOCCNC(=O)c2ccc([18F])nc2)ccc1NC(=O)C1NC(CC(C)(C)C)C(C#N)(c2ccc(Cl)cc2F)C1c1cccc(Cl)c1F` (stereo not shown), the uptake was ~70% (HepG2; baseline: added dose).
For `CCC(C)C(=O)OC1C2C3(C)CCC(OC4CC(OC)C(OC5OC(C)C(OC6OC(CO)C(O)C(O)C6O)C(OC)C5O)C(C)O4)CC3CCC23OC32CCC(C(C)=O)C2(C)C1OC(C)=O` (stereo not shown), “fold reversal of IC50” read 1 (MDA435/LCC6-MDR1; cell growth, MDR reversal, SRB; 10 µM, added: doxorubicin; baseline: doxorubicin alone over combination).
`COc1ccccc1/C=C/[N+](=O)[O-]` has a CC50 of 2.35 µM (OCI-AML2; cell growth or viability; 72 h).
The viability of `COC(=O)C1=CO[C@@H](OC(C)=O)[C@@H]2C(Cn3cc(C4(O)CCCC4)nn3)=CC[C@H]12` is reported as 58.1 ± 1.1% (SK-N-SH; neuroprotection, MTT; 0.15 µM, 24 h, added: 250 µM H2O2).
The EC50 of `CSCC[C@H](NC(=O)[C@@H](NC(=O)[C@H](CCSC)NC(=O)[C@H](Cc1ccc(O)cc1)NC(=O)[C@H](CCCCN)NC(=O)[C@@H](N)Cc1c[nH]c2ccccc12)C(C)C)C(N)=O` is reported as 0.002 µM (human neutrophils; chemotaxis, agonist).
`CC/C=C\C/C=C\C/C=C\C/C=C\C/C=C\C/C=C\CCC(=O)Nc1ccn(C2OC(CO)C(O)C2(F)F)c(=O)n1` (stereo not shown) has a CC50 of > 100 µM (SR; NCI60 screen).
With `COc1c(C)cc2c(c1OC)OCO2` the GI50 was > 250 µM (SK-OV-3; cell growth or viability, MTT; 72 h).
With `O=C(O)CCC(NP(=O)(O)OCCC[C@@H](NC(=O)CCC(NC(=O)CCCCCNC(=O)c1ccc([18F])cc1)C(=O)O)C(=O)O)C(=O)O` (stereo partly shown) the cell uptake was 0.56 ± 0.05% (CWR22Rv1; 1 h).
`CCCCCCCCOCc1cn(CC2=CC[C@@H]3C(C(=O)OC)=CO[C@@H](OC(C)=O)[C@H]23)nn1` has a viability of 56.1 ± 0.5% (SK-N-SH; neuroprotection, MTT; 0.075 µM, 24 h, added: 250 µM H2O2).
The selectivity index of `CC(C)=CCC1=C([O-])C(=O)c2ccccc2C1=O.CC(C)=CCC1=C([O-])C(=O)c2ccccc2C1=O.[Zn+2].c1ccc(-c2ccnc3c2ccc2c(-c4ccccc4)ccnc23)cc1` is reported as 5.4 (MRC5 and A2780; MTT; 24 h; baseline: IC50 MRC5 over IC50 A2780).
`COC(=O)C1=CO[C@@H](OC(C)=O)[C@@H]2C(Cn3cc(C4(O)CCCCC4)nn3)=CC[C@H]12` has a viability of 57.1 ± 1.2% (SK-N-SH; neuroprotection, MTT; 0.6 µM, 24 h, added: 250 µM H2O2).
`CC(C)C[C@H](NC(=O)[C@H](CO)NC(=O)[C@H](Cc1c[nH]c2ccccc12)NC(=O)[C@H](Cc1ccccc1)NC(=O)[C@H](Cc1ccccc1)NC(=O)[C@H](CCC(N)=O)NC(=O)[C@@H]1CCCN1C(=O)[C@H](CCCNC(=N)N)NC(=O)[C@H](CCCNC(=N)N)NC(=O)[C@H](CCCNC(=N)N)NC(=O)[C@H](CCC(N)=O)NC(=O)[C@H](CCCNC(=N)N)NC(=O)[C@H](CCCNC(=N)N)NC(=O)[C@H](CCCCN)NC(=O)[C@H](CCCCN)NC(=O)[C@H](CCCNC(=N)N)NC(=O)CNC(=O)[C@@H](N)Cc1ccc(O)cc1)C(=O)N[C@@H](CS)C(=O)N[C@H](C(=O)N[C@@H](C)C(=O)O)[C@@H](C)O` gave an ATP level of 10% (Jurkat; CellTiter-Glo; 15 µM, 18 h, 0.5% FBS; baseline: control).
`COC(=O)C1=CO[C@@H](OC(C)=O)[C@@H]2C(Cn3cc(-c4ccc(F)cc4)nn3)=CC[C@H]12` gave a viability of 58.6 ± 0.9% (SK-N-SH; neuroprotection, MTT; 0.3 µM, 24 h, added: 250 µM H2O2).
The IC50 of `Cc1cc(C)c(N2CCN(c3c(C)cc(C)cc3C)C2=[Se])c(C)c1.[Cl][Au]` is reported as 8.2 µM (A2780; cell growth or viability; 72 h, 3D culture).
`COC(=O)C1=CO[C@@H](OC(C)=O)[C@@H]2C(Cn3cc(CCO[Si](C)(C)C(C)(C)C)nn3)=CC[C@H]12` gave a viability of 62.8 ± 0.2% (SK-N-SH; neuroprotection, MTT; 0.3 µM, 24 h, added: 250 µM H2O2).
For `CSCC[C@H](NC(=O)[C@H](CC(C)C)NC(=O)[C@H](Cc1c[nH]cn1)NC(=O)CNC(=O)[C@@H](NC(=O)[C@H](C)NC(=O)[C@H](Cc1c[nH]c2ccccc12)NC(=O)[C@H](CCC(N)=O)NC(=O)CCCCCCCNC(=O)[C@@H](CCCCNC(=O)Cn1ccnc1[N+](=O)[O-])NC(=O)[C@@H](CCCCNC(=O)Cn1ccnc1[N+](=O)[O-])NC(=O)[C@@H](CCCCNC(=O)Cn1ccnc1[N+](=O)[O-])NC(=O)CN1CCN(CC(=O)O)CCN(CC(=O)O)CCN(CC(=O)O)CC1)C(C)C)C(N)=O` [indium-111 labelled], “retained internalized radioactivity” read 69.4% (PC-3; concentration not given, 8 h, hypoxia).
For `COC(=O)C1=CO[C@@H](OC(C)=O)[C@@H]2C(Cn3cc(CCO)nn3)=CC[C@H]12`, the viability was 71.2 ± 2.8% (SK-N-SH; neuroprotection, MTT; 0.3 µM, 24 h, added: 250 µM H2O2).
`CCOP(=O)(OCC)OCCCCOC(=O)CC1=C(C)C(=Cc2ccc([S+](C)[O-])cc2)c2ccc(F)cc21` (stereo not shown) has an apoptosis increase of > 2 fold (A549 EGFR-knockdown; Annexin V/PI staining; 95 µM, 24 h; baseline: mock-transfected cells).
With `COC(=O)C1=CO[C@@H](OC(C)=O)[C@@H]2C(Cn3cc(CCBr)nn3)=CC[C@H]12` the viability was 68.9 ± 0.5% (SK-N-SH; neuroprotection, MTT; 0.3 µM, 24 h, added: 250 µM H2O2).
The phototherapeutic index of `F[P-](F)(F)(F)(F)F.F[P-](F)(F)(F)(F)F.[Ru+2].c1ccc(-c2ccccn2)nc1.c1ccc(-c2ccccn2)nc1.c1csc(-c2ccc(-c3ccc(-c4cc5cccnc5c5ncccc45)s3)s2)c1` is reported as 25 (SK-MEL-28; cell viability; red light 625 nm; baseline: dark EC50 over light EC50).
`COc1ccnc(Nc2c3c(nc4cc(C)ccc24)CCCC3)c1` has a viability of 42.5 ± 2.94% (SH-SY5Y; MTT; 50 µM, 1 h pretreatment, 10% FBS, added: H2O2).
Under “potency fold over MMAF”, `CC[C@H](C)[C@@H]([C@@H](CC(=O)N1CCC[C@H]1[C@H](OC)[C@@H](C)C(=O)N[C@H](C)[C@@H](O)c1ccccc1)OC)N(C)C(=O)[C@@H](NC(=O)[C@@H](NC)C(C)C)C(C)C` is recorded as ~170 fold (MDA-MB-231 cells; cytotoxicity; baseline: MMAF EC50 over compound EC50).
The selectivity index of `C[OH+][Cu-2]12[O]C(c3cn(-c4ccccc4)nc3-c3ccccc3)=N[N+]1=C(C)c1c(cc(C)oc1=O)[O]2` (stereo not shown) is reported as 7.6 (A549 and Vero cells; cell viability, MTT; baseline: IC50 Vero over IC50 A549).
